Results pooled from the literature.
A part holds a random share of what one study measured. Substitutions count along the parent as printed.

Series 1
Target: Prothrombin, mature alpha-thrombin (F2, Homo sapiens, UniProt P00734)
Method: aptamer microarray, sandwich
Form: DNA with 2'F-ANA
Medium: in vitro
Concentration: 200 nM
Setting: whole 15-mer aptamer, many near background
Added: Cy3 exosite-II aptamer, 400 nM
Reading: higher = stronger binding
Sequence: GGTTGGTGTGGTTGG
Modification | mean fluorescence intensity [a.u.]
2'F-ANA at 2 4 5 6 9 14 | 51.1
2'F-ANA at 2 3 4 5 6 7 9 10 12 14 15 | 49.2
2'F-ANA at 2 7 9 10 11 14 15 | 83.3
2'F-ANA at 1 4 5 6 7 10 13 14 | 43.1
2'F-ANA at 1 2 3 5 6 7 8 9 11 14 15 | 49.8
2'F-ANA at 6 7 10 11 12 13 14 15 | 105
2'F-ANA at 1 2 6 11 12 14 | 56.7
2'F-ANA at 1 5 6 8 10 12 13 14 15 | 46.3
2'F-ANA at 1 2 4 5 7 9 10 11 15 | 53
2'F-ANA at 3 7 8 11 12 13 14 | 1040
2'F-ANA at 2 3 7 10 13 | 534
2'F-ANA at 2 3 6 7 8 9 10 11 15 | 303
2'F-ANA at 3 4 5 6 8 10 11 12 15 | 58.3
2'F-ANA at 2 7 10 12 15 | 196
2'F-ANA at 5 8 10 13 15 | 43.7
2'F-ANA at 1 2 4 5 6 11 14 | 45
2'F-ANA at 1 3 5 6 7 8 9 10 11 13 14 15 | 51.1

Series 2
Target: Interferon regulatory factor 5, full length, phosphomimetic (IRF5, Homo sapiens, UniProt Q13568-2, residues 1-514, K96S/S451D/S453D/S456D/S462D)
Method: protein-binding microarray
Form: double-stranded DNA, one strand shown
Medium: in vitro
Concentration: 250 nM
Setting: 60-bp whole probe
Added: salmon DNA 0.4 mg/ml
Reference: random background probes
Reading: higher = stronger binding
Constant ends, left off below: GCCTAGCAC … GTCTTGATTCGCTTGACGCTGCTG
Sequence | log fluorescence [z-score]
TTAGGTTTCGAGTTTCGGTTAGTGCTA | 10.2
GACAGTATCGACTATCGGGACGTGCTA | 6.09
GACGGACTGGGGTTTTGGGACGTGCTA | -0.533
GAAGGTATCGACTATCGGGACGTGCTA | 3.65
TCAATACTCGTTTACATACTGTGCTAG | 0.587
GAAGTAATTTCAAACCACAGGTGCTAG | 0.256
AGGAGTATTTATCTGCAAAGGTGCTAG | 0.203
CTCCCTCTGTAAGTCAGCACGTGCTAG | -0.327
TTAAGTTTCGGTATCGGTTAGTGCTAG | 11.8
GACGGTCTCAGACTGGGGACGTGCTAG | -0.394
ACCCTGCCTAAAGCTAGTTTGTGCTAG | -0.543
GAAGGTTTCGGTCTCGGGACGTGCTAG | 9.24
TCAGAGTCCTGTTTGATACTGTGCTAG | -0.511
TTAGAACTGAGGTTCGATTAGTGCTAG | 0.0725
CTAGTTAAGGTACACCAGCAGTGCTAG | -0.227
GCTGGTCACTCTCTGGGCTGGTGCTAG | -0.614
TTTGGTTTCGGACTGGGTTAGTGCTAG | 7.91
GTCCACTCCAGACCGTTTGCGTGCTAG | -0.347
TTAGGTATCCTTTTACTTTAGTGCTAG | 1.06
TTAGGTCTCGGTTTCGGTCAGTGCTAG | 7.88
TTGAGTCTTCTCCTCTAGGTGTGCTAG | -0.227
GACGGTTTCGTTTCCCTGACGTGCTAG | 6.32

Series 3
Target: ABI1, truncated, D143A, DHFR fusion (Arabidopsis thaliana)
Method: DHFR PCA, deep sequencing
Medium: yeast
Setting: methotrexate growth selection, single substitutions
Added: (+)-ABA 0.032 µM
Reference: wild-type fitted maximum
Reading: higher = stronger binding
Parent: PYL1, truncated, DHFR fusion (Arabidopsis thaliana); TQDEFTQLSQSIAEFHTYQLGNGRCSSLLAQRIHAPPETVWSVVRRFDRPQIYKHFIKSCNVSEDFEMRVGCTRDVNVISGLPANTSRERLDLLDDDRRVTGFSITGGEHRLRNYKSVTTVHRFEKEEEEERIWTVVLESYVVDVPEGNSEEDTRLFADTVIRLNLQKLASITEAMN; partner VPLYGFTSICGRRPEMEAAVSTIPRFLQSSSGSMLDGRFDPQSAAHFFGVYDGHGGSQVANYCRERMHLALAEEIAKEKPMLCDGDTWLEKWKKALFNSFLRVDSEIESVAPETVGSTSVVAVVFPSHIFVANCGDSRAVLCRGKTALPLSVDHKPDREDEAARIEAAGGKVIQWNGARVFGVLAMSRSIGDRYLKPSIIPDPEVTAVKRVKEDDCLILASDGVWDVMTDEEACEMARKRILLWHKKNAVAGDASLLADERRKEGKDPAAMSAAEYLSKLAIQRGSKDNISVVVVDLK
Change | relative binding score
N22L | 18.4%
V44P | -3.59%
H110G | 28.2%
A170L | -9.49%
N77I | 41.8%
T101S | 1.97%
H34Q | 28.5%
T135K | -2.18%
L29D | 3.4%
I33L | 3.56%
S42D | 16.1%

Series 4
Target: Fragile X messenger ribonucleoprotein 1, C-terminal low-complexity region (Fmr1, Mus musculus, UniProt P35922)
Method: RNA Bind-n-Seq
Form: RNA
Medium: in vitro
Concentration: 200 nM
Setting: whole 134-nt RNA, ends assumed
Added: 150 mM LiCl
Reference: input library
Reading: higher = stronger binding
All molecules: 7-deaza-guanosine replaces G
Sequence | log2 enrichment
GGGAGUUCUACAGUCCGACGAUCUGGGAGGUGGAUUUUGUUUAUUUUUUUAGCUCAUUUCCAGAGGUGGGAAUUUUUUUUUAAUAUGUGUCAUGAAUAAAGUUGUUUUUGAAAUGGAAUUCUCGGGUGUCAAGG | -0.543
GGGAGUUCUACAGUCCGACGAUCAAGUCCUGUGCUACACAUCGUAUGUACCGAAUCGGGGAGGGGAGGGGUUUUUGGGGAAAGUAUUAUGUUACGCCGUUCGGAUCUGCACUUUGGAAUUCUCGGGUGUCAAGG | 0.164
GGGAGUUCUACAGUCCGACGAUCCUGUGCUACACAUCGUAUGUACCGAAUCGGCCCCCCCGGGCCCCCCCGGGCCCCCCCGGGGAAAGUAUUAUGUUACGCCGUUCGGAUCUGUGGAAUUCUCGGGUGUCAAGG | -0.805
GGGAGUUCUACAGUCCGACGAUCGCAGGAAGUAACAACAAAUGGAAAUGCUUCGGAUAGUGGCAGGGGUGGGGGUUGCUAAGGAAAGGGUGGGAUGGGAGUGGGUAAAGAGUUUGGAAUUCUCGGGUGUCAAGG | 1.42
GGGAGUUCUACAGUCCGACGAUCGUCCUGUGCUACACAUCGUAUGUACCGAAUCGGUUUUUGGUUUUUUUGGAAAAAAAGGAAAGUAUUAUGUUACGCCGUUCGGAUCUGCACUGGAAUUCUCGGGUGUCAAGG | -2.26
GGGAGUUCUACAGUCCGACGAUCCAAGUCCUGUGCUACACAUCGUAUGUACCGAAUCGGUUUUUGGUGGAAAAAAAGGAAAGUAUUAUGUUACGCCGUUCGGAUCUGCACUUCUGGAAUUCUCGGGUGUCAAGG | -1.42
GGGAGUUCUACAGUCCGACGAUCGCAGGAAGUAAAAACAAAUGGAAAUGCUUCGGAUAGUGGCAGGGGUGGGGGUUGGUAAGGAAAGGGUGGGAUGGGAGUGGGUAAAGAGUUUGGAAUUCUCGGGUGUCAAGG | 1.64
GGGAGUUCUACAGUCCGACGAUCUCAAGUCCUGUGCUACACAUCGUAUGUACCGAAUCGGGCCGGGGCCGGCCGGGGAAAGUAUUAUGUUACGCCGUUCGGAUCUGCACUUCCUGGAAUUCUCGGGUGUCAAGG | 0.242
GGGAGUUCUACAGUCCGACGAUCCCUGUGCUACACAUCGUAUGUACCGAAUCAAAGUGUGUGUGUGUAAAGUGUGUGUGUAAAAAAGUAUUAUGUUACGCCGUUCGGAUCUGCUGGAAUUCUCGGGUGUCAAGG | -1.68
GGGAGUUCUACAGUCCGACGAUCAAGUCCUGUGCUACACAUCGUAUGUACCGAAUCGGGAAAAAAAGGGAGGGAAAGGGAAAGUAUUAUGUUACGCCGUUCGGAUCUGCACUUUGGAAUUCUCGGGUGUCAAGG | -0.837
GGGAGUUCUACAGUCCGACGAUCCUCAAGUCCUGUGCUACACAUCGUAUGUACCGAAUCGGAAAGGUGGAAAAAGGAAAGUAUUAUGUUACGCCGUUCGGAUCUGCACUUCCAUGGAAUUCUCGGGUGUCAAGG | 0.00562

Series 5
Target: CCNB3, cyclin fold, Cln2 fusion (human)
Method: yeast growth competition, sequencing
Medium: yeast
Setting: weak parent motif
Reference: not given
Reading: higher = stronger binding
Parent: RBL1 docking peptide (human); GSAKRRLFGEDPP; partner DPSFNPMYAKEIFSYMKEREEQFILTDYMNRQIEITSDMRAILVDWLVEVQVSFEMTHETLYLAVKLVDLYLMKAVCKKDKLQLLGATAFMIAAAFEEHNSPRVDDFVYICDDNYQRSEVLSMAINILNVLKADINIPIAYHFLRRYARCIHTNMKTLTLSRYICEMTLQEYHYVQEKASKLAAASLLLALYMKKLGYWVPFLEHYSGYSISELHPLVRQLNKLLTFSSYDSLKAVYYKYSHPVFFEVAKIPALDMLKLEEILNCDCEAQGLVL
Change | normalised enrichment score
G9I | 0.937
E10W | 0.325
L7G | 0.337
S2Y | 0.663
R6I | 1.04
S2E | 0.555
P13V | 1.21
G1P | 0.486
L7H | 0.413
F8S | 0.0115
G1D | 0.671
P12Y | 0.789
R5I | 0.0162
P13F | 0.364
P12A | 0.774
L7F | -0.0172
E10Y | 0.251
S2C | 0.851
G9A | 1.34
D11T | 0.793
L7I | 0.992
R5W | -0.121
R6L | 0.231
P13C | 0.911
R5Q | 0.213

Repeated from above (series 5):
Change | normalised enrichment score
L7G | 0.337
S2Y | 0.663
R6I | 1.04
S2E | 0.555
P13V | 1.21
G1P | 0.486
